# Experimental data collected from several papers.
# Each numbered part is a random draw from the data of one study; scales do not carry over between parts.
# UniProt Q6P2M8, sequence (whole entry, looked up): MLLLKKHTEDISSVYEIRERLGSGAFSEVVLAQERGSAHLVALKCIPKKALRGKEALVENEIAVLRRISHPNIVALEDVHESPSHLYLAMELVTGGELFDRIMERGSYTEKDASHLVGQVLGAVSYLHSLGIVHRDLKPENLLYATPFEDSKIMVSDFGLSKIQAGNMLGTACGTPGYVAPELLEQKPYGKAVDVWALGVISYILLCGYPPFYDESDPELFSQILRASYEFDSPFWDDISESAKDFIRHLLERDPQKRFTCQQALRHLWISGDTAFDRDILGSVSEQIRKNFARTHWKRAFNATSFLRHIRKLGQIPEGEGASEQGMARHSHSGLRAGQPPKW
# UniProt Q99558, sequence (whole entry, looked up): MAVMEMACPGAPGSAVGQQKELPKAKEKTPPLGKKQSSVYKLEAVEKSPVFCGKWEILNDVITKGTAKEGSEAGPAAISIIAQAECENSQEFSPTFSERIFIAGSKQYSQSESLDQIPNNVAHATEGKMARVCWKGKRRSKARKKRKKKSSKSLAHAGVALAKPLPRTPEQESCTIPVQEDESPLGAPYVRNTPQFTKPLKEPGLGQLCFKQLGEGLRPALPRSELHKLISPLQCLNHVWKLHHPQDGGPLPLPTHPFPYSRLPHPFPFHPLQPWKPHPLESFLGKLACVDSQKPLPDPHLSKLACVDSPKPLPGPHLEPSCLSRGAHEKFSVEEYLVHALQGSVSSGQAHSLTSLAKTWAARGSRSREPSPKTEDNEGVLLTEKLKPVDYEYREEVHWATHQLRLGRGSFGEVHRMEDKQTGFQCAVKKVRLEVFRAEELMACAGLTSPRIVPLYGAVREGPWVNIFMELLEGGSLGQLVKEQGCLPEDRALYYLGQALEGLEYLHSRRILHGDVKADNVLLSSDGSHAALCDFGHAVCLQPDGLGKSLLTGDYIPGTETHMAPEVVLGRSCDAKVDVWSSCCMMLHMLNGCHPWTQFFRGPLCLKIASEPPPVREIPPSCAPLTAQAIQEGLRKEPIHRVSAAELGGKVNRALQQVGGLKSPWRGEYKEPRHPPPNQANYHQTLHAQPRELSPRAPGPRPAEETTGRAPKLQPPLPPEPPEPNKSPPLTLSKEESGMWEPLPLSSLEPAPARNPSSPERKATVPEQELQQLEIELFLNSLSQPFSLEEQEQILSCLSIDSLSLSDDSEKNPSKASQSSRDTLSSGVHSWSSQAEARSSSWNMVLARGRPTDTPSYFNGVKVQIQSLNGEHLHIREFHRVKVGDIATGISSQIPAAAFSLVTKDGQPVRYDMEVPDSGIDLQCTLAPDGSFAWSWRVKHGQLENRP
# UniProt O15197, sequence (whole entry, looked up): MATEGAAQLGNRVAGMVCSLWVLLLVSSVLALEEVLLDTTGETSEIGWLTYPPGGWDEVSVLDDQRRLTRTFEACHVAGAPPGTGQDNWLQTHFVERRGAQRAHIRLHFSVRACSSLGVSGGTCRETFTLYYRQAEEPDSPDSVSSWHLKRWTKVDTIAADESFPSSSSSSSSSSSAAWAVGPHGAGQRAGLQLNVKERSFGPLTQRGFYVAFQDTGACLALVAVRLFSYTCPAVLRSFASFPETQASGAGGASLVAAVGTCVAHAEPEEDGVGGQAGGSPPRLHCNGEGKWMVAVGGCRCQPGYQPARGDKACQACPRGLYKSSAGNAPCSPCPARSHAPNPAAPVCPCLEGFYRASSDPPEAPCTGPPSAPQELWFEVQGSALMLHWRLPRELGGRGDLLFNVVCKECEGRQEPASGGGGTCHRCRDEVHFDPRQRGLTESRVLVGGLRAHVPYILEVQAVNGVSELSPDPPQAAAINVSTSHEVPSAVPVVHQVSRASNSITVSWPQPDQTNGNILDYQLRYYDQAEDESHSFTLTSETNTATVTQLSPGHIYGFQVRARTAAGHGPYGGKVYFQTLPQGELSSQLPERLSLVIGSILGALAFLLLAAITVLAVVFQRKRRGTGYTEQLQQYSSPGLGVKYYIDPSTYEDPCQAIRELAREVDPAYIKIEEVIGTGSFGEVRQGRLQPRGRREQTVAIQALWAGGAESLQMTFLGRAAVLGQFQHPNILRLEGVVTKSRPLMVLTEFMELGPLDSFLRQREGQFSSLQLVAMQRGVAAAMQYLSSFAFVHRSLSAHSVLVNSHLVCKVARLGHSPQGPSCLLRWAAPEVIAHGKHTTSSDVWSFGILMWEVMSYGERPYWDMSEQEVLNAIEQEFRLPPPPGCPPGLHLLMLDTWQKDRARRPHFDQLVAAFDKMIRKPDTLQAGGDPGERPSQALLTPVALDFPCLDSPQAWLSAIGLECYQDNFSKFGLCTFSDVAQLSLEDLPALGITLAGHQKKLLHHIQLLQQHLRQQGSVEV
# UniProt Q8TDX7, sequence (whole entry, looked up): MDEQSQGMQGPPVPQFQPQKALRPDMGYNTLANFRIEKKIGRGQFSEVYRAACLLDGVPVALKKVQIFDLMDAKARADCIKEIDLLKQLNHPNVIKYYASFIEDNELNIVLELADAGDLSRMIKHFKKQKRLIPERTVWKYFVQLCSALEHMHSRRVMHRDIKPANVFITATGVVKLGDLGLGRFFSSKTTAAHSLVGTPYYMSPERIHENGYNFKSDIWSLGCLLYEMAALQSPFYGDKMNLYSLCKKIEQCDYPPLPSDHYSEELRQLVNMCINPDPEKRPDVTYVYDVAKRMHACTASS
# UniProt Q13043, sequence (whole entry, looked up): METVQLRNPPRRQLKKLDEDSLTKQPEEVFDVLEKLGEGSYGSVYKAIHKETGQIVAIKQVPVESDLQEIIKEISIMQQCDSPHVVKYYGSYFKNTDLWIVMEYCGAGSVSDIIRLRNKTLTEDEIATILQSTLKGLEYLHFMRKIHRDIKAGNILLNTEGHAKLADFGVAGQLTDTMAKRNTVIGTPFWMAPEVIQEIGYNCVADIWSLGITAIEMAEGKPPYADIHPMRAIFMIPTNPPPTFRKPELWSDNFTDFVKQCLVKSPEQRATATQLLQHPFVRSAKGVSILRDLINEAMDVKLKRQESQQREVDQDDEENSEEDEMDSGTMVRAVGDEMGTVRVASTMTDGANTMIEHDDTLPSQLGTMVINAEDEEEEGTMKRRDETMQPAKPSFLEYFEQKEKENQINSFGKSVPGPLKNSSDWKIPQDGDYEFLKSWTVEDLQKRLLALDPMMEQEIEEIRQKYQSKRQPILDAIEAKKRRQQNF
# UniProt P11802, sequence (whole entry, looked up): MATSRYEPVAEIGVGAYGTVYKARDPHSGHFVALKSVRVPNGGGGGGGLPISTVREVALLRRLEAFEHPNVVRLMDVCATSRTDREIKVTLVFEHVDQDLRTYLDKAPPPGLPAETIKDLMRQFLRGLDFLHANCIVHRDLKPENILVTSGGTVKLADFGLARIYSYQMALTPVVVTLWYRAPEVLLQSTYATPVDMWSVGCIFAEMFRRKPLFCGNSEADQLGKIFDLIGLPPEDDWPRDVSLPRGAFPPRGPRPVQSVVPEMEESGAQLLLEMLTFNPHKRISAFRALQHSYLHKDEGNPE

# Block 1
# Target: Activin receptor type-1 (ACVR1, Homo sapiens, UniProt Q04771)
# UniProt Q04771, sequence (whole entry, looked up): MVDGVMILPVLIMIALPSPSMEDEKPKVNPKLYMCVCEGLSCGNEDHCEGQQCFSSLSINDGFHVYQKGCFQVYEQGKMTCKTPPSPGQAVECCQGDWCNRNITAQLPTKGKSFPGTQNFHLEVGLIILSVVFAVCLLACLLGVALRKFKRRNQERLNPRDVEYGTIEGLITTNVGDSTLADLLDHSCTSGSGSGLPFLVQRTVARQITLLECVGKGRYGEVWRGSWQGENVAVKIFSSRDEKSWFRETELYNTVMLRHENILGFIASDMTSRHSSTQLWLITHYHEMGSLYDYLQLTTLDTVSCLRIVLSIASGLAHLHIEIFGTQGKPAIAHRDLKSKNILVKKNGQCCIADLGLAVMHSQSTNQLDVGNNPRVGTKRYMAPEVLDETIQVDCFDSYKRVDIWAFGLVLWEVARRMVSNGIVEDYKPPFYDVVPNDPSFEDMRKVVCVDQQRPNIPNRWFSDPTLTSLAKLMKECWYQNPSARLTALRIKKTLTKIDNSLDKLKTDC
# Observed: enzyme activity
# Mode: inhibitor
# Concentration: 0.5 µM
# Reference: control
Structure (SMILES),remaining activity [%]
CCCCc1c(-c2ccc(OC)cc2)[nH]c2nccnc12,86.9
O=C(c1cc2cc(O)ccc2[nH]1)c1cc2cc(O)ccc2[nH]1,123
O=C1Nc2ccccc2/C1=C\c1c(Cl)[nH]c2ccccc12,100
Cc1cc(Nc2cc(N3CCN(C)CC3)nc(Sc3ccc(NC(=O)C4CC4)cc3)n2)[nH]n1,162
COc1ccc2c(c1)c(C1=C(c3c[nH]c4ccccc34)C(=O)NC1=O)cn2CCCN(C)C,98
O=C1Nc2ccc(Br)cc2/C1=C/c1cc2c([nH]1)CCCC2,97
O=Nc1c(-c2c(O)[nH]c3cc(Br)ccc23)[nH]c2ccccc12,114
CN(C)S(=O)(=O)c1ccc2c(c1)/C(=C/c1cc3c([nH]1)CCCC3)C(=O)N2,98.6
Cc1ccc(S(=O)(=O)/C=C/C#N)cc1,101
c1ccc2c(-c3ccncc3)c[nH]c2c1,94.7
c1ccc(-c2n[nH]c3c2oc2ccccc23)cc1,99.4
O=C1NC(=O)c2c1c1c3ccccc3[nH]c1n1cncc21,103
N#Cc1cnc2cnc(NCc3cccnc3)cc2c1Nc1ccc(F)c(Cl)c1,95.6
COc1cccc(-c2cc(=O)c3ccccc3o2)c1N,92.7
CCCNC(=O)Nc1ccc(Oc2ncnc3cc(OC)c(OC)cc23)cc1Cl,101
COc1ccc(COc2ccc(Cc3cnc(N)nc3N)cc2OC)cc1,100
O=C1Cc2c([nH]c3ccc(Br)cc23)-c2ccccc2N1,162
O=c1cc(N2CCOCC2)oc2c(-c3ccccc3)cccc12,91.2

# Block 2
# Compound: CCC(=O)N[C@@H]1CC[C@H](C(=O)N(C)c2ccc(-c3nc4ccccc4o3)cc2)C1
# Observed: cell-free assay
# Method: competition with immobilised ligand
# Concentration: 1 µM
target,remaining binding
"Non-receptor tyrosine-protein kinase TNK1 (TNK1, Homo sapiens, UniProt Q13470)",100%
"Calcium/calmodulin-dependent protein kinase type 1B (PNCK, Homo sapiens, UniProt Q6P2M8)",100%
"Cyclin-dependent kinase 4, with cyclin D1 (CDK4, Homo sapiens, UniProt P11802)",96%
"Mitogen-activated protein kinase kinase kinase 14 (MAP3K14, Homo sapiens, UniProt Q99558)",100%
"Leucine-rich repeat serine/threonine-protein kinase 2 (LRRK2, Homo sapiens, UniProt Q5S007)",100%
"Calcium/calmodulin-dependent protein kinase type 1 (CAMK1, Homo sapiens, UniProt Q14012)",100%
"Receptor-type tyrosine-protein kinase FLT3, autoinhibited (FLT3, Homo sapiens, UniProt P36888)",84%
"Phosphatidylinositol 4,5-bisphosphate 3-kinase catalytic subunit alpha isoform (PIK3CA, Homo sapiens, UniProt P42336, C420R)",70%
"Mitogen-activated protein kinase 6 (MAPK6, Homo sapiens, UniProt Q16659)",100%
"Serine/threonine-protein kinase Nek7 (NEK7, Homo sapiens, UniProt Q8TDX7)",100%
"High affinity nerve growth factor receptor (NTRK1, Homo sapiens, UniProt P04629)",100%
"Serine/threonine-protein kinase DCLK1 (DCLK1, Homo sapiens, UniProt O15075)",88%
"Epithelial discoidin domain-containing receptor 1 (DDR1, Homo sapiens, UniProt Q08345)",100%
"Serine/threonine-protein kinase 4 (STK4, Homo sapiens, UniProt Q13043)",90%
"Ephrin type-B receptor 6 (EPHB6, Homo sapiens, UniProt O15197)",100%
"Dual specificity tyrosine-phosphorylation-regulated kinase 1A (DYRK1A, Homo sapiens, UniProt Q13627)",98%
"Ephrin type-B receptor 4 (EPHB4, Homo sapiens, UniProt P54760)",100%

# Block 3
# Target: Bromodomain-containing protein 4, BD1 (BRD4, Homo sapiens, UniProt O60885)
# Observed: acetyl-histone H4 peptide binding
# Method: AlphaScreen displacement
# Concentration: 50 µM
SMILES,inhibition
COc1ccc(C)c(Nc2cc(OCCN3CCOCC3)nc(-n3cnc4ccccc43)n2)c1,54.9%
Nc1nc(Nc2ccccc2F)sc1C(=O)c1ccc(Br)cc1,59.9%
Cc1ccc(C=C(C#N)c2nc3ccccc3s2)o1,31.6%
O=c1[nH]c2ncc(-c3cccnc3)nc2n1C1CCCC1,4.8%
Cc1c(C(=O)Nc2ccccc2)sc2nc[nH]c(=O)c12,5.7%
O=C1C(Cl)=C(N2C(=O)CCC2=O)C(=O)c2ccccc21,10.1%
O=CNc1cccc2c1sc1nc[nH]c(=O)c12,10.6%
COc1ccc(-c2[nH]c3ncccc3c2CN2CCN(S(=O)(=O)N(C)C)CC2)cc1,5.25%
O=C1NC(=O)C(=Cc2ccc3c(c2)OC(F)(F)O3)S1,2.55%
CC(=O)Nc1ccc(NC(=O)CSc2ccc3nnc(-c4cccc(F)c4)n3n2)cc1,10.6%
N#CC(=Cc1ccncc1)c1nc2cc(C(F)(F)F)ccc2s1,48.3%
CCOc1ccc(NC(=S)Nc2ccc3nc[nH]c(=O)c3c2)cc1,26.9%
O=C(Nc1ccncc1)Nc1c(Cl)cc(Cl)cc1Cl,9.15%
O=C(O)CSc1nnc(-c2ccc(Cl)cc2)n1-c1ccccc1,8.55%
O=C1Nc2ccc3ncsc3c2C1=CNc1ccc(S(=O)(=O)Nc2ccccn2)cc1,29.1%
N#CC(=Cc1ccncc1)c1nc2ccccc2o1,21.9%
COC(=O)c1ccccc1NC(=O)CSc1nnc(-c2ccccc2)n1-n1cccc1,8.55%
COc1ccc(-c2[nH]c3ncccc3c2CN2CCOCC2)cc1,23.2%

# Block 4
# Cell line: HaCaT
# Concentration: 100 µM
# Time: 18 h
Compound,viability [%]
CC(=O)N1CCN(c2ccc(OC[C@@H]3CO[C@@](Cn4ccnc4)(c4ccc(Cl)cc4Cl)O3)cc2)CC1 (racemic),15.6
CC(C)COc1ccc(CNC(=O)N(Cc2ccc(F)cc2)C2CCN(C)CC2)cc1,16.3
COc1ccc(C[C@@H]2c3cc(OC)c(OC)cc3CC[N@+]2(C)CCC(=O)OCCCCCOC(=O)CC[N@@+]2(C)CCc3cc(OC)c(OC)cc3[C@H]2Cc2ccc(OC)c(OC)c2)cc1OC,70.1
Nc1ccc(S(=O)(=O)Nc2ccccn2)cc1,66
CCN1CCN(C(=O)N[C@@H](C(=O)N[C@@H]2C(=O)N3[C@@H]2SC(C)(C)[C@@H]3C(=O)O)c2ccccc2)C(=O)C1=O,94.8
CNC(=O)c1c(C)oc2cc(Oc3ncnc4cc(OC)c(OC)cc34)ccc12,100
O=C(c1ccc(F)cc1)C1CCN(CCn2c(=O)[nH]c3ccccc3c2=O)CC1,88.9
CN(Cc1ccc(C(C)(C)C)cc1)Cc1cccc2ccccc12,43.2
Cn1cnc2c1c(=O)[nH]c(=O)n2C,95.7
CC1=CC(=O)c2ccccc2C1=O,21.4
CCOC(=O)C1=C[C@@H](OC(CC)CC)[C@H](NC(C)=O)[C@@H](N)C1,113
C=CC1=C(C(=O)O)N2C(=O)[C@@H](NC(=O)/C(=N\OCC(=O)O)c3csc(N)n3)[C@H]2SC1,111
CC1CC(OC(=O)C(O)c2ccccc2)CC(C)(C)C1 (stereo not shown),20.1
CC(=O)Oc1cccc2c1C(=O)c1c(OC(C)=O)cc(C(=O)O)cc1C2=O,86.4
Clc1cccc(Cl)c1N=C1NCCN1,114
CN1CCN(C2=Nc3ccccc3Oc3ccc(Cl)cc32)CC1,32.5
N[C@H]1C(O)O[C@H](CO)[C@@H](O)[C@@H]1O (stereo partly shown),101

# Excerpt of the above (block 2):
target,remaining binding
"Ephrin type-B receptor 6 (EPHB6, Homo sapiens, UniProt O15197)",100%
"Serine/threonine-protein kinase Nek7 (NEK7, Homo sapiens, UniProt Q8TDX7)",100%
"Ephrin type-B receptor 4 (EPHB4, Homo sapiens, UniProt P54760)",100%
"Epithelial discoidin domain-containing receptor 1 (DDR1, Homo sapiens, UniProt Q08345)",100%
"Serine/threonine-protein kinase 4 (STK4, Homo sapiens, UniProt Q13043)",90%
"Receptor-type tyrosine-protein kinase FLT3, autoinhibited (FLT3, Homo sapiens, UniProt P36888)",84%
"Non-receptor tyrosine-protein kinase TNK1 (TNK1, Homo sapiens, UniProt Q13470)",100%
"Mitogen-activated protein kinase kinase kinase 14 (MAP3K14, Homo sapiens, UniProt Q99558)",100%
"Dual specificity tyrosine-phosphorylation-regulated kinase 1A (DYRK1A, Homo sapiens, UniProt Q13627)",98%
